Published values pooled from the literature.
Parts stem from different laboratories: compare values within a part only.
Sequence of UniProt P11802 (whole entry, looked up): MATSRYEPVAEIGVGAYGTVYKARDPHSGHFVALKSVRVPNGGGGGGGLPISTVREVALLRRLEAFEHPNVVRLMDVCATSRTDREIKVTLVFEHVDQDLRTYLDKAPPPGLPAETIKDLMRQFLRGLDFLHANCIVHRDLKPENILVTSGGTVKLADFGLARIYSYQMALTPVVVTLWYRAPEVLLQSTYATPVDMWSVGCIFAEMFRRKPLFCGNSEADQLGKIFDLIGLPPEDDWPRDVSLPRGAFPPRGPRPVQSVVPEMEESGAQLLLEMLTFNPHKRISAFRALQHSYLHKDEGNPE
Sequence of UniProt P27037 (whole entry, looked up): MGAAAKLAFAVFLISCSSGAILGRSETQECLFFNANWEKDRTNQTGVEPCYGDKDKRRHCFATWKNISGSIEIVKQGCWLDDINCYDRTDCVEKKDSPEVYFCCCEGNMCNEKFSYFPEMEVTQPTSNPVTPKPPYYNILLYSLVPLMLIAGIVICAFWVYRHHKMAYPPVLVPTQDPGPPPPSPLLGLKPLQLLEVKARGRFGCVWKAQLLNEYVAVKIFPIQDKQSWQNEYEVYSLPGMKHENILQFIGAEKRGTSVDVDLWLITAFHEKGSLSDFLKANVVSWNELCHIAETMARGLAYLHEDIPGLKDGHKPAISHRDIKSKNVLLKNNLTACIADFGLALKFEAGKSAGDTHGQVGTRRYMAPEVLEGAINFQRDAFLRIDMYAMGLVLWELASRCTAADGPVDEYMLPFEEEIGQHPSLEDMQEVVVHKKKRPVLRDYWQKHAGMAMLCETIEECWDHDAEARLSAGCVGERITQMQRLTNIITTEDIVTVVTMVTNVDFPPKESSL
Sequence of UniProt Q96RR4 (whole entry, looked up): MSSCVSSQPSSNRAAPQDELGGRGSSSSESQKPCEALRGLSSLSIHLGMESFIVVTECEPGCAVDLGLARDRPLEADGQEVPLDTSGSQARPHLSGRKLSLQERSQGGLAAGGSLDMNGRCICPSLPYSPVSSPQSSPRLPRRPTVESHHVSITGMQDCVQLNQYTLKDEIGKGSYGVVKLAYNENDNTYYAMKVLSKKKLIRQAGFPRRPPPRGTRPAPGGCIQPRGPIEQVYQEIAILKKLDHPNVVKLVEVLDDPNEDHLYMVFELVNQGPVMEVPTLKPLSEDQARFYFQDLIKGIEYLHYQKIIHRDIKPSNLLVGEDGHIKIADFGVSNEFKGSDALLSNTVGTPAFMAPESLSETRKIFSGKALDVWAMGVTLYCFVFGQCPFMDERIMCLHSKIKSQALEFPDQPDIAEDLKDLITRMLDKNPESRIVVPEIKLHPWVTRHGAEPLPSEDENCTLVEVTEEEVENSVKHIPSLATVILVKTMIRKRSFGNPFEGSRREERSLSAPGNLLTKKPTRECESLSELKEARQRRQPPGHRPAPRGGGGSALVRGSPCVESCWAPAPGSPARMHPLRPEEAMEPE
Sequence of UniProt P57078 (whole entry, looked up): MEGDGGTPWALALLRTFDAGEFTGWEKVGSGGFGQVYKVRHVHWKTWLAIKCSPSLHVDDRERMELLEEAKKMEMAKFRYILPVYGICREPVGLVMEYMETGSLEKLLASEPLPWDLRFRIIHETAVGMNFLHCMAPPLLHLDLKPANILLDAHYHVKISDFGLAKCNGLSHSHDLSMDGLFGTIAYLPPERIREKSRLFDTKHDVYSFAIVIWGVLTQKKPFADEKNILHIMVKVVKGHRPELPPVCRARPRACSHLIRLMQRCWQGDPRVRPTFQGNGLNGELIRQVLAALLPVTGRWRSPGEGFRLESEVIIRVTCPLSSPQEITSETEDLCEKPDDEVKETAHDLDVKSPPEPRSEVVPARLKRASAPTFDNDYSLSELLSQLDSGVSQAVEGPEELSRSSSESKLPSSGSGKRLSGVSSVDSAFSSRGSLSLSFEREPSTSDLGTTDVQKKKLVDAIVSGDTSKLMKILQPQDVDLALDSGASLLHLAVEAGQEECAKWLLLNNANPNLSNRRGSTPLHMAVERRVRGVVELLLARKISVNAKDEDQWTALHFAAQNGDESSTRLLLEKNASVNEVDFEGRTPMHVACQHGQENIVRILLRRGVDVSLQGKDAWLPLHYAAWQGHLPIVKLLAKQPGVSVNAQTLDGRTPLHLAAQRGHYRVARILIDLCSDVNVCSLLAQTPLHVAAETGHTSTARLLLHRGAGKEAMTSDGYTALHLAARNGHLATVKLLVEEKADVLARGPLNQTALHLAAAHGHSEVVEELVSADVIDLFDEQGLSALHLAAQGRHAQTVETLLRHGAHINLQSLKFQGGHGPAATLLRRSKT
Sequence of UniProt P49760 (whole entry, looked up): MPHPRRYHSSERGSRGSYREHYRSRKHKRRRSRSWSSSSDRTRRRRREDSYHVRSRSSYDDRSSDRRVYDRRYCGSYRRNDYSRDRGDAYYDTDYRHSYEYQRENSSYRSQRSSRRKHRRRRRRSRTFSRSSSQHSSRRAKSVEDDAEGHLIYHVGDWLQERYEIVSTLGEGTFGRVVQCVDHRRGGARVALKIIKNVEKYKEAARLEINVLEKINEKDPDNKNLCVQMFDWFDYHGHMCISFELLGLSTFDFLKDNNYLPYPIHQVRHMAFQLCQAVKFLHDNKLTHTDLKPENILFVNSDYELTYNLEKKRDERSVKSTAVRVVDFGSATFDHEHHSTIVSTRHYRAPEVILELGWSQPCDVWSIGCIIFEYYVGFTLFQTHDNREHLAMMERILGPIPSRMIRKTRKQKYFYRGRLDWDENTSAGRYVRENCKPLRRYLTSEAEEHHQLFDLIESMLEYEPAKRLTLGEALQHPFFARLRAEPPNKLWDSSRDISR

Block 1
Structure (SMILES): CN(C)c1ncnc(-c2ccc3nc(Nc4cc(CN5CCN(C(=O)CC(F)(F)F)CC5)ccn4)[nH]c3c2)c1Cl
Observed: cell-free assay
Method: competition with immobilised ligand
Tested at: 1 µM
| target | remaining binding |
| --- | --- |
| CILK1 (Homo sapiens, UniProt Q9UPZ9) | 100% |
| IRAK3 (Homo sapiens, UniProt Q9Y616) | 97% |
| CAMKK2 (Homo sapiens, UniProt Q96RR4) | 88% |
| FLT3 (Homo sapiens, UniProt P36888, D835V) | 7% |
| Cyclin-dependent kinase 4, with cyclin D3 (CDK4, Homo sapiens, UniProt P11802) | 70% |
| ACVR2A (Homo sapiens, UniProt P27037) | 90% |
| RIPK4 (Homo sapiens, UniProt P57078) | 100% |
| FLT3 (Homo sapiens, UniProt P36888, K663Q) | 81% |
| CLK2 (Homo sapiens, UniProt P49760) | 90% |
| EGFR (Homo sapiens, UniProt P00533, del747-752/P753S) | 100% |

Block 2
Target: Proto-oncogene tyrosine-protein kinase ROS (ROS1, Homo sapiens, UniProt P08922)
Sequence of UniProt P08922 (whole entry, looked up): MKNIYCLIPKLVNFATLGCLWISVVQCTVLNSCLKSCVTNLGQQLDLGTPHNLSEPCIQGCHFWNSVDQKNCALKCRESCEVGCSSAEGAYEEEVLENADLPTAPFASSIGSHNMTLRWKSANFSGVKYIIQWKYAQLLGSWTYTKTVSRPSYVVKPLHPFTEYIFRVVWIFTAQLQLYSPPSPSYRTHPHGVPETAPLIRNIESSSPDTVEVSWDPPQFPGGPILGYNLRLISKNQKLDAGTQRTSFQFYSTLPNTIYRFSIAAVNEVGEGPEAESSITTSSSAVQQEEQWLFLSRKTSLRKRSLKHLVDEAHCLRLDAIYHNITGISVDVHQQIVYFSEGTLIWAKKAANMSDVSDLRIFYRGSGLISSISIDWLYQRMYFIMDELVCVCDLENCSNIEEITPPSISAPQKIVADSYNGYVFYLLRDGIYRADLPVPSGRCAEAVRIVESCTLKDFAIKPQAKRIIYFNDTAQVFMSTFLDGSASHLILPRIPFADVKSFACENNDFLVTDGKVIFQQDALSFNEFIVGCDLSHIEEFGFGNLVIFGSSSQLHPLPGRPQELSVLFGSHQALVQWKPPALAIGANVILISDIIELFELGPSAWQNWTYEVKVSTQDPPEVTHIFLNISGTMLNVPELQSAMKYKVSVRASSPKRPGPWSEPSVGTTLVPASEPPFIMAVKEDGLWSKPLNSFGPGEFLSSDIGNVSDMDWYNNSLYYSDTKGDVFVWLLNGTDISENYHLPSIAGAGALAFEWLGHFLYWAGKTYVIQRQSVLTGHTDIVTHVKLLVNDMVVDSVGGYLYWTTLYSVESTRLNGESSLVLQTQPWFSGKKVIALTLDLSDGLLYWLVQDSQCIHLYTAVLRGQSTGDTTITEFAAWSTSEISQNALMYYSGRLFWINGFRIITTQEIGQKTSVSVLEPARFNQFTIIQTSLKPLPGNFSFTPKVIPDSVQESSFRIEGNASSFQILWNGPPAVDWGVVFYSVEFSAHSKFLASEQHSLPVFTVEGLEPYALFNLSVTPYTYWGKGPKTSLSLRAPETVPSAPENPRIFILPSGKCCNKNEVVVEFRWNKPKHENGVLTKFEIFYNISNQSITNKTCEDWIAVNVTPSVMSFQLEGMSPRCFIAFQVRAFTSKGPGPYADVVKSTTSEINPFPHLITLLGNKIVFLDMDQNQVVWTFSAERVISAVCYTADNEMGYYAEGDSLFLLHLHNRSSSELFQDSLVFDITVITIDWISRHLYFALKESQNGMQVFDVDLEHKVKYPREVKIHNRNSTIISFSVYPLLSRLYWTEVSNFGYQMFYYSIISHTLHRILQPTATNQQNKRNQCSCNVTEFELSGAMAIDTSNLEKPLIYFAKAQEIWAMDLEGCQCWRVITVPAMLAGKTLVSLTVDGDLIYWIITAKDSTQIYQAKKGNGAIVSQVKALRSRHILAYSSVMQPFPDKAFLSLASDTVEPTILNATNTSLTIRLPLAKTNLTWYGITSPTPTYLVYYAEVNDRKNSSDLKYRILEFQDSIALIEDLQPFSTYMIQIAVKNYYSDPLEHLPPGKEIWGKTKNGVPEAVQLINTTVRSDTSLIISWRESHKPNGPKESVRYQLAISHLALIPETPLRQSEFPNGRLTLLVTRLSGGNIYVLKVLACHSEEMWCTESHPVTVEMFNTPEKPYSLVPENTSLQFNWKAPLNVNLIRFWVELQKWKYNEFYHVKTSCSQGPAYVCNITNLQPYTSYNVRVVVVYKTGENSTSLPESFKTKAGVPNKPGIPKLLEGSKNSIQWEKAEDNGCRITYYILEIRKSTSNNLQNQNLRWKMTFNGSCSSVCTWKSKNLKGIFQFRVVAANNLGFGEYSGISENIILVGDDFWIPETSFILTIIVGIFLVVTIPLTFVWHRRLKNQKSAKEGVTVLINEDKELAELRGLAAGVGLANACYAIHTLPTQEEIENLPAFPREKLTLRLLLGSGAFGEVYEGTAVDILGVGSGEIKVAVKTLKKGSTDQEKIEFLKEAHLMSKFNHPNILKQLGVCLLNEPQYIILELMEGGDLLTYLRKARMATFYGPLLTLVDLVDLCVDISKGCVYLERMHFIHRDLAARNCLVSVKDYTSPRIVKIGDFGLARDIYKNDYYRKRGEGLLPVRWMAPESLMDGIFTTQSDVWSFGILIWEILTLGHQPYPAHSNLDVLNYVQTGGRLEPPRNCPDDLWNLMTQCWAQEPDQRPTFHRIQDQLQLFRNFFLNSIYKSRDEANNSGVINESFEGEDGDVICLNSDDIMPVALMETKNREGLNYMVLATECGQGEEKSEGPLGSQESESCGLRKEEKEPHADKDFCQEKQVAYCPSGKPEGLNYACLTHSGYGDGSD
Observed: enzyme activity
Mode: inhibitor
Tested at: 0.5 µM
Relative to: control
| Compound | remaining activity [%] |
| --- | --- |
| CCN(CC)CCCCN1c2ccccc2Oc2ccc(Cl)cc21 | 95.3 |
| CC(C)(C)c1nc2c3cc[nH]c(=O)c3c3cc(F)ccc3c2[nH]1 | 31.2 |
| CC(C)n1cnc2c(Nc3cccc(Cl)c3)nc(NCCO)nc21 | 102 |
| CNc1cc2c(Nc3cccc(Br)c3)ncnc2cn1 | 89.1 |
| Clc1ccc(Nc2nnc(Cc3ccncc3)c3ccccc23)cc1 | 94.7 |
| CC(C)N(CCC(=O)c1ccc2ccccc2c1)Cc1ccccc1 | 113 |
| CCCCc1c(-c2ccc(O)cc2)[nH]c2nccnc12 | 26.3 |
| O=Nc1c(-c2c(O)[nH]c3ccccc23)[nH]c2ccccc12 | 65.6 |
| CCCNC(=O)Nc1ccc(Oc2ncnc3cc(OC)c(OC)cc23)cc1Cl | 97.6 |
| Nc1nc(Nc2ccc(S(N)(=O)=O)cc2)nn1C(=S)Nc1c(F)cccc1F | 1.68 |
| N#C/C(=C(/N)SC1C=CC=CC1)c1cccc(C(O)c2ccncc2)c1 (centres unmarked) | 95.2 |
| O=C1Cc2c([nH]c3ccc(Br)cc23)-c2ccccc2N1 | 83.6 |
| O=C(O)/C=C/c1cc(Br)c(Br)c(Br)c1Br | 94 |
| O=C1Nc2ccccc2/C1=C\c1c(Cl)[nH]c2ccccc12 | 109 |
| N#Cc1cnc2cnc(NCc3cccnc3)cc2c1Nc1ccc(F)c(Cl)c1 | 98.3 |
| O=C1NC(=O)c2c1c1c3ccccc3[nH]c1n1cncc21 | 77 |
| COc1cccc(-c2cc(=O)c3ccccc3o2)c1N | 97.5 |
| COc1ccc2c(c1)c(C1=C(c3c[nH]c4ccccc34)C(=O)NC1=O)cn2CCCN(C)C | 52.4 |
| NC(=O)c1ccc(-c2nc(-c3ccc4c(c3)OCCO4)c(-c3ccccn3)[nH]2)cc1 | 113 |
| c1ccc(-c2n[nH]c3c2oc2ccccc23)cc1 | 106 |
| Cc1ccc(S(=O)(=O)/C=C/C#N)cc1 | 94.1 |
| FC(F)(F)c1ccc(/C=C/c2nc(COc3ccc(CCCCn4ccnn4)cc3)co2)cc1 | 93.3 |
| O=C(c1cc2cc(O)ccc2[nH]1)c1cc2cc(O)ccc2[nH]1 | 105 |
| N#CC(c1ccnc(NCCc2cccnc2)n1)c1nc2ccccc2s1 (centres unmarked) | 92.7 |
| CN(C)S(=O)(=O)c1ccc2c(c1)/C(=C/c1cc3c([nH]1)CCCC3)C(=O)N2 | 83.3 |

Block 3
Cell line: A-375
Tested at: 100 µM
Time: 36 h
| Structure (SMILES) | viability [%] |
| --- | --- |
| CC1(C)S[C@@H]2[C@H](NC(=O)COc3ccccc3)C(=O)N2[C@H]1C(=O)O | 92.1 |
| O=C1CN(/N=C/c2ccc(-c3ccc([N+](=O)[O-])cc3)o2)C(O)=N1 | 77.2 |
| CC1=NN(c2ccccc2)C(=O)C1 | 110 |
| COC(=O)[C@H]1[C@H]2C[C@@H]3c4[nH]c5cc(OC)ccc5c4CCN3C[C@H]2C[C@@H](OC(=O)c2cc(OC)c(OC)c(OC)c2)[C@@H]1OC | 14.7 |
| CC(C)C(=O)Oc1ccc(CO)cc1[C@H](CCN(C(C)C)C(C)C)c1ccccc1 | 1.9 |
| CO[C@H]1O[C@@H]2O[C@@]3(C)CC[C@H]4[C@H](C)CC[C@@H]([C@H]1C)[C@@]24OO3 | 44 |
| CCN(CC)CCOCCOC(=O)C1(c2ccccc2)CCCC1 | 103 |
| CCN(CC)CCOCCOC(=O)C(CC)(CC)c1ccccc1 | 85.6 |
| S=C1SCN(Cc2ccccc2)CN1Cc1ccccc1 | 38.1 |

Block 4
Method: PRP chromatography
Setting: linear fit, 1 mL
| Structure (SMILES) | logD 1,9-decadiene/water |
| --- | --- |
| CC(C)C[C@@H]1NC(=O)[C@H](C)NC(=O)[C@H](Cc2cscn2)NC(=O)[C@H](C)NC(=O)[C@@H](CCC(=O)N2CCCC2)NC(=O)[C@H](CC(C)C)NC(=O)[C@@H](CC(C)C)NC1=O | -2.72 log units |
| CC(C)C[C@@H]1NC(=O)[C@H](C)NC(=O)[C@H](CCC(=O)N2CCCC2)NC(=O)[C@H](CC(C)C)NC(=O)[C@@H](Cc2cscn2)NC(=O)[C@H](CC(C)C)NC(=O)[C@@H](CC(C)C)NC1=O | 0.153 log units |
| CC(C)C[C@@H]1NC(=O)[C@H](Cc2cscn2)NC(=O)[C@H](Cc2cscn2)NC(=O)[C@H](CC(C)C)NC(=O)[C@@H](CCC(=O)N2CCCC2)NC(=O)[C@H](CC(C)C)NC(=O)[C@@H](CC(C)C)NC1=O | -0.93 log units |
| CC(C)C[C@@H]1NC(=O)[C@H](CC(C)C)NC(=O)[C@@H](CC(C)C)NC(=O)[C@@H](C(C)C)NC(=O)[C@H](C)NC(=O)[C@H](CC(C)C)NC(=O)[C@@H](CC(C)C)NC1=O | 1.36 log units |
| CC(C)C[C@@H]1NC(=O)[C@H](CC(C)C)NC(=O)[C@@H](CC(C)C)NC(=O)[C@H](Cc2cscn2)NC(=O)[C@@H](CCC(=O)N2CCCC2)NC(=O)[C@H](Cc2cscn2)NC(=O)[C@H](C)NC1=O | -2.53 log units |
| CC(C)C[C@@H]1NC(=O)[C@H](CC(C)C)NC(=O)[C@@H](C(C)C)NC(=O)[C@@H](C)NC(=O)[C@H](C)NC(=O)[C@@H](CC(C)C)NC(=O)[C@H](C)NC1=O | -2.32 log units |

A few entries again (block 1):
| target | remaining binding |
| --- | --- |
| EGFR (Homo sapiens, UniProt P00533, del747-752/P753S) | 100% |
| CAMKK2 (Homo sapiens, UniProt Q96RR4) | 88% |
| RIPK4 (Homo sapiens, UniProt P57078) | 100% |
| Cyclin-dependent kinase 4, with cyclin D3 (CDK4, Homo sapiens, UniProt P11802) | 70% |
| CLK2 (Homo sapiens, UniProt P49760) | 90% |
| CILK1 (Homo sapiens, UniProt Q9UPZ9) | 100% |
| IRAK3 (Homo sapiens, UniProt Q9Y616) | 97% |
